Measured values collected from several papers.
Parts stem from different laboratories: compare values within a part only.

Study 1
Organism: Saccharomyces cerevisiae
Effect on: cell growth
Technique: competitive growth deep sequencing
Form: peptide
Notes: peptide tiling library
Added: cyclin F-Cln2 fusion
Reading: direction not given
Endpoint: enrichment score
ESSQLTVQAEFDMSAI: 0.558
ASVLSKPIFCFVKD: 0.145
VLPGGVPSPGASLTSM: 0.273
YLYLLLTQSLWCRV: 0.729
DVSERGYVILPNDYFE: 0.523
GTPKRCLDLSNLSSGE: 1.1
ATNSSHTDAHEILVSD: 0.141
AEHPKPSACRNLFGPV: 3.93
PHKTFRKLRLFDTPHT: -0.135
NSMKELNFSHLPSNSV: 0.523
NESHLDKEHDAVEVAD: 0.501
EHCRVLFLDHVMYTIH: 0.462
KVRRNLFNQELLSP: 2.99

Study 2
Target: RNA binding protein fox-1 homolog 2, RRM domain, GST-SBP tag (RBFOX2, Homo sapiens, UniProt O43251-10, residues 100-194)
Technique: RNA Bind-n-Seq
Form: RNA
Medium: in vitro
Concentration: 365 nM
Notes: natural RNA segment, single round, ends assumed
Reference: no-protein control
Reading: higher = stronger binding
Endpoint: RBNS enrichment (R)
Shared flanks, not repeated: GGGAGUUCUACAGUCCGACGAUC … UGGAAUUCUCGGGUGCCAA
Target sequence (chain): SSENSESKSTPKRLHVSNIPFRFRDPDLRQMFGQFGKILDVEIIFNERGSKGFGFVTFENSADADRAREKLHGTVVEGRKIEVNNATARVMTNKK
UAAACUCCAAAGAUCUGUUUGUUUUGGCUUUACAAUCUUAGCUAAUUUUUCUGUAUCCUGGAACCAUUACAUGAUCAUGUUGCUUUGAAGAUCUUUUUAUGCCACUGUUU: 1.03
GGGAGGACAGCCACCAACUAGCUCACUCAGCAUUUUAAACUUGAGUUCCUUUGAUAUCUGAGUUUAUUCAACAGUUCUUGGGUUUAGCAAACCCAAAAUAUUUUAUUAAG: 0.628
CAGGCAUCCCAUGGGACCCAUCACUGCCAGUGUCUGUGCCUCCCAGAGGUCAGCCGUGUCUGCCCUGGCUCUGUCUCCUCUGUGACAGGGCAGAGCAUUUCUGGUCAGUU: 0.213
CACAGUCAUGAACUUUUGUUUUUCUCCCUUUUUUAGUUUUUUCAAAGAUGGGGGGAAGGGAAAUAUGAGCCUUUGUUGCUUUCAAAACGAGAACAGUUUGUACAAGUUUU: 0.556
UUCCUAUGAGCAGUUCAACCUGUGCCUGCAAAGCCAAAGGGGCUGAGGUACAUUAGAGCAUGGAGGACACCUCCACAUCUUUUGAAAUCCAGGCAAGGAGACCAAAACUU: 0.306
UUAUUUUUUUCUCUCAAUGGUAUAGCAUAUUCCUAUGCUUGAGAAGUAUAGGUCUACUGAAAAACCAUUGUAAAUGGACGUUACAGGUAUGCUGUAUUUUUGAAGGUAUU: 0.542
UAAUAUUCAUUUAAUUUGUGCAUGACUUGUGGCCUUUUUGUAUUUUCUCAAGCCUAUUACUCUAGAGCUGUAAAAGCUCUUGCACAGCAUUGUUGUGUCAGUGUAGAAUA: 1.19
GGACAGAGCUGGGUGCCACAGUUUUCCACCAAGAGCAGCCUCUUUUCUUCAUGGAGUUCUCAGAACCUUUCAGGGUUCAGGAGGCUCCCCUGAGAAUAGACAGGAGAGGG: 0.332
UAAUUAGAGCACAGGGAGCAGGGCAGCUGUUAUUCCUGUUUUACCAAGUCAAGGCUUAGGGAAGUUCAGCCACCUGCUUAGAUGAUAUAUCAAGGUGGCAGUGGAAGGGG: 0.438
GGACCCCGUCACUGCGACGUUGACACUCCUCUCCCUUCCCUUCCUCCCCAACUCCCCAAACACUGUGGAAGGGGAGAAGGAAGUGAUCCACAGCAUUCAGGCCACUUGGG: 1.35
GAGAGCGCAGACCUAUUUCUAGCCACUCCUGUUGACAGUGCGCCUGAAGGGCCGGGCGUGCCUCUCUUGGUGUUGCAUGCUCGUGACACUCAAGAAAUUUUGAACUGAUG: 4.65
UCAGUAAAAUGGACUAGCAUAUUAUUUAUCUUGUUCUUCAGUUAACAACUUUGUGUUCUCUGUGGGAGGGAGGGAGUCCUGUGUGUUUGUGGGGAGAGGGAAGGAGGAAG: 0.649

Study 3
Target: Interferon regulatory factor 3, full length, phosphomimetic (IRF3, Homo sapiens, UniProt Q14653, residues 1-427, S386D/S396D/S398D/S402D/T404D/S405D)
Technique: protein-binding microarray
Form: double-stranded DNA, one strand shown
Medium: in vitro
Concentration: 2540 nM top
Notes: 60-bp whole probe
Added: salmon DNA 0.4 mg/ml
Reference: random background probes
Reading: higher = stronger binding
Endpoint: fitted relative affinity
Shared flanks, not repeated: GCCTAGCAC … GTCTTGATTCGCTTGACGCTGCTG
Target sequence (chain): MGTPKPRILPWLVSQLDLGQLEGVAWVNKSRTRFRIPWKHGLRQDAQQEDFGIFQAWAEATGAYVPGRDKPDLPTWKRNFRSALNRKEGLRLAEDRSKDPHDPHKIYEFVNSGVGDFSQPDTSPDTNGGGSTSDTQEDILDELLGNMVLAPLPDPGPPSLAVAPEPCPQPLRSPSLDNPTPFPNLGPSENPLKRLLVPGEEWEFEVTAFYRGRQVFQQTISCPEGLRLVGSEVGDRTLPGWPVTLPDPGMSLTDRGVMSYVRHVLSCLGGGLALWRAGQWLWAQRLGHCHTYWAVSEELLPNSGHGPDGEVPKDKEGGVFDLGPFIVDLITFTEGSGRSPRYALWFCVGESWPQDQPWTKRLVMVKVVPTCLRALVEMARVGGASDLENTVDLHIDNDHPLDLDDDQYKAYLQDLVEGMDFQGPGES
CACAGAATCCCCTTCTACTCGTGCTAG: 1.55 z-score
TCACCTAGCCATTATGAGACTGTGCTA: -0.00244 z-score
CTTGTGCTCCTTTTAATTTTGTGCTAG: 2.78 z-score
TTAAGTATCCTTCTCCTTTAGTGCTAG: 8.23 z-score
GACGCACTGAGACTGGAGACGTGCTAG: -0.323 z-score
TCACTTCTGGGCTGTTTGACTGTGCTA: 0.656 z-score
TCATTTCCCAGAACTGGAACTGTGCTA: 1.97 z-score
TTAGAACTGAGTCTCGAGTAGTGCTAG: -0.692 z-score
TTAGATATCGGGCTTCGATTAGTGCTA: -0.276 z-score
TTAGGTATCGGACTGGTTTAGTGCTAG: 1.28 z-score
CAGCCTCTGCATTCCCTCAGGTGCTAG: -0.31 z-score
GGCCCAGGAGGAGGCCCCTCGTGCTAG: -1.51 z-score
TTCACTTTAACTTATTCTCTAGTGCTA: 0.785 z-score
TTAGGCATCCTTATCCTTTAGTGCTAG: 0.655 z-score
TTAGGACTGGACACTGCGTTAGTGCTA: -0.87 z-score
TTAGATATCAATATCGATTAGTGCTAG: 0.626 z-score
GACGGTTTCCTACTGCTGCCGTGCTAG: 5.11 z-score
TCATGTATTTGTCCCTAACTGTGCTAG: 0.621 z-score

Study 4
Target: Centromere-binding protein 1, full length, N-terminal tag (CBF1, Saccharomyces cerevisiae, UniProt P17106, residues 1-351)
Chain of UniProt P17106 (whole entry, looked up): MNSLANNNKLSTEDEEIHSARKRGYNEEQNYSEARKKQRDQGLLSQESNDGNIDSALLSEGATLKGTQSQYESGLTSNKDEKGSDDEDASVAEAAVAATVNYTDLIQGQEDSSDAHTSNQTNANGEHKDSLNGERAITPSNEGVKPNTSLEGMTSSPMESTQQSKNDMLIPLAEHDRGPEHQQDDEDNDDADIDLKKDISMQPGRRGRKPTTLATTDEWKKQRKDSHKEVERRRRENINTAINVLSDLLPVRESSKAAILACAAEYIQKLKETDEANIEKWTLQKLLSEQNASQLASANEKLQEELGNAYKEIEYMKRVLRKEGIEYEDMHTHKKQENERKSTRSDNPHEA
Technique: protein-binding microarray
Form: double-stranded DNA, one strand shown
Medium: in vitro
Concentration: 0.8 µM
Notes: whole 60-bp probe, no competitor
Reading: higher = stronger binding
Endpoint: fluorescence intensity
Shared flanks, not repeated: … GTCTTGATTCGCTTGACGCTGCTG
GAAAGCGAATACCGGCTGATGTACAGAAGCGAATAG: 510 a.u.
CTACTGGCGGTAAGTCACCTTTAGTTATCCTTCTTC: 473 a.u.
CTACCTTACATCCGTCACGAAACTCTTATGGCTTTC: 542 a.u.
GAAAGTTGAGTTCGTCACCAACCGTCCCTCGACTAG: 494 a.u.
CCTAACTACTATACGCACATGCTATAGCTTCGTACA: 628 a.u.
CTAAAGCGAAGACATCAGACATTCCAGTAGGGTTTC: 527 a.u.
GAAAAAGAGAGAGCACACACGTTATAAACTACCTAG: 531 a.u.
CTAGCCTTTTACCGTGGTGCGAAGCATATTGAGTTC: 543 a.u.
CCTAACTACTATATTCGCGTGGAATAGCTTCGTACA: 505 a.u.
CTAAGGTAATTACCTAACGTCACCCACTGAAATTTC: 505 a.u.
CTAAGTCACGCTGAACACGCGGCGGTAGCTTCATTC: 935 a.u.
CTACGTAATATAATGTGCATGAAGTACGACCCATTC: 552 a.u.
GAAATTAAGCCGCACGTGCTCGCCGCAGATGTTTAG: 12400 a.u.
CTACCGGTAGAAGGTGGTGCTTTTATCTATGTATTC: 507 a.u.
GAACATCTTTAGCACCACGCCTAACGCGTCAAATAG: 530 a.u.
GAAGCGTCTACTCATCACCTATAGTCTCAAGATTAG: 495 a.u.
GAATCTACGGAAGCCCACCAGATAAGCGCCTTTTAG: 496 a.u.
TGTACGAAGCTATTTGGCGTGCCTATAGTAGTTAGG: 508 a.u.
CTATTTGGTAGTTTCCACGTTGGCCGCCTCTTCTTC: 502 a.u.
CTACCTCTTTAAGCTGACATCACGTCTATACCCTTC: 605 a.u.
CTACCCTGTCGCCATCACCAAGGGTTTCTGCCATTC: 478 a.u.
CTATTCCAATGGGATTGCGTGATTATGTTTCGTTTC: 596 a.u.
CTATCTATACTATGACGCGTCACGAATTGTGCTTTC: 607 a.u.
CCTAACTACTATATATACACCACATAGCTTCGTACA: 564 a.u.
CCTAACTACTATAAACTGGTGACATAGCTTCGTACA: 510 a.u.

Study 5
Target: Histone acetyltransferase KAT6A, both winged helices, GST fusion (KAT6A, Homo sapiens, UniProt Q92794, residues 1-181)
Technique: protein binding microarray
Form: double-stranded DNA, one strand shown
Medium: in vitro
Concentration: not given
Notes: 8-mer, flanks averaged, mean of 2 arrays, mostly near background
Reference: not given
Reading: higher = stronger binding
Endpoint: E-score
Construct (chain): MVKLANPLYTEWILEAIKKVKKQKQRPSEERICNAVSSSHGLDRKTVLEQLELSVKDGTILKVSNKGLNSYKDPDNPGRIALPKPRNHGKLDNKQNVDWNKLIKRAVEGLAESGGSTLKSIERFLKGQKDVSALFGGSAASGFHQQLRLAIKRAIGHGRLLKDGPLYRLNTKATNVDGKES
ATTCAGGG: -0.149
CCCCCTGC: -0.0787
ACCGCTTA: 0.166
GGTCACTA: -0.0299
AAGAAGCT: -0.137
AAGATGAT: -0.132
ACCAGAAC: -0.0559
ACTCTAAG: -0.00193
CAATTCGA: -0.112
GCCGAATA: 0.186
CCAACGGC: 0.198
CACCCGGA: 0.0229
GGTATAGA: -0.0594
ACTACGAT: -0.0905
CAGCATAA: -0.147
AGCACACG: 0.0147
TCGCTTCA: -0.00404
AAAGTGCT: -0.103

Study 6
Target: Sal-like protein 4, full length isoform A (SALL4, Homo sapiens, UniProt Q9UJQ4, residues 1-1053)
Chain of UniProt Q9UJQ4 (whole entry, looked up): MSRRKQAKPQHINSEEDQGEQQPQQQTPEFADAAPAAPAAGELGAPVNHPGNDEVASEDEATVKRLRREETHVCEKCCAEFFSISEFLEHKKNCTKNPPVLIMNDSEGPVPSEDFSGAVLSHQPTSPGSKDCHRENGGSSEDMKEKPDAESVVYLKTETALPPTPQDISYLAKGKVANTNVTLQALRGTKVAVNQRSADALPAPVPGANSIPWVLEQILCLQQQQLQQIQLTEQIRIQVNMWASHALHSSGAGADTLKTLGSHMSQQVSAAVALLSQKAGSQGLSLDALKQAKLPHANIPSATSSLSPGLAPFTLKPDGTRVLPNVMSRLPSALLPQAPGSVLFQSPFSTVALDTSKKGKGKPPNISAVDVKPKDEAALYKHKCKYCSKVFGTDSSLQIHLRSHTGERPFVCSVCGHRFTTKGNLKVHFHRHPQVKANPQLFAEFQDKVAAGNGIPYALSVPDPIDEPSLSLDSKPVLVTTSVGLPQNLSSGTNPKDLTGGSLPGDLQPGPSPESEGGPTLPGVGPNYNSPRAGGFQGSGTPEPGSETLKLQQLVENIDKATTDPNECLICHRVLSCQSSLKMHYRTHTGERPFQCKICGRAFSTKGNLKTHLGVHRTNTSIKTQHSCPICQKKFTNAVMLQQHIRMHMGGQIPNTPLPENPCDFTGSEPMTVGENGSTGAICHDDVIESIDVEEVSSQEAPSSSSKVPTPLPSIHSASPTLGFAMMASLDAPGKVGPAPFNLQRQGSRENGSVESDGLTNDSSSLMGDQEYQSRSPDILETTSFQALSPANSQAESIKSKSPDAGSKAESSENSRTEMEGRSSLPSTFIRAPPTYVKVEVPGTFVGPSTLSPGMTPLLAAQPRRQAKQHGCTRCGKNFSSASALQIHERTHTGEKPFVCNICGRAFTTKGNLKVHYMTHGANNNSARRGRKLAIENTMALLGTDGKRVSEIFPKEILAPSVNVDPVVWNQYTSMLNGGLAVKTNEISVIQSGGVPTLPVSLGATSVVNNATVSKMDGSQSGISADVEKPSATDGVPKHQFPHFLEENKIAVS
Technique: universal PBM
Form: double-stranded DNA, one strand shown
Medium: in vitro
Concentration: 600 nM
Notes: 8-mer, flanks averaged, mean of replicates
Reading: higher = stronger binding
Endpoint: E-score
CTTTGCGC: -0.0312
TCCTATAA: 0.26
CTCTAGTC: -0.183
ACCTGATC: -0.011
CTTTCTGA: 0.15
AAGAATAC: 0.236
GCTCCCCC: -0.284
ACGTGTAG: -0.087
AGTGTAGG: 0.105
CTAGCGAA: -0.136
AACACACT: 0.0215
CGGATGTA: 0.0121
ACTGTCCT: -0.0434
CAGTGGAC: -0.127
ATAAGTAC: 0.247
CTGCTGTA: 0.0361
ACTCTCGC: -0.16
ACAGTAAC: 0.0974
GCCAATTA: 0.213
GGGCCAAA: -0.2
TGGTAAAA: 0.172
AGGAGTAC: -0.132
CACAGCCC: -0.318
ATCCCCCG: -0.159
CACTGCCC: -0.251

Excerpt of the above (study 5):
ACCGCTTA: 0.166
TCGCTTCA: -0.00404
ACCAGAAC: -0.0559
CCCCCTGC: -0.0787
ATTCAGGG: -0.149
CAGCATAA: -0.147
CAATTCGA: -0.112
AGCACACG: 0.0147
AAGATGAT: -0.132
GGTCACTA: -0.0299
